Experimental data pooled from the literature.
Each line is one published result; not all experiments were run side by side. “And” joins repeats or separate records; there may be more than shown. Numbers after ± are the reported error.
FURIN: Furin (FURIN, Homo sapiens, UniProt P09958)
Oprk1: Kappa-type opioid receptor (Oprk1, Mus musculus, UniProt P33534)
Fructose-1,6-bisphosphate aldolase/phosphatase: Fructose-1,6-bisphosphate aldolase/phosphatase (Helicobacter pylori, UniProt Q9ZMG8)

CN[C@H]1CC[C@@H](c2ccc(Cl)c(Cl)c2)c2ccccc21  Ki (Cytochrome P450 2B6 (CYP2B6, Homo sapiens, UniProt P20813, K262R); 5 min, pH 7.4): 1760 nM and 1700 nM
C=C[C@H]1CN2CC[C@H]1C[C@H]2[C@H](O)c1ccnc2ccccc12  Ki (Sodium-dependent serotonin transporter (SLC6A4, Homo sapiens, UniProt P31645); transporter uptake, inhibitor, radiometric): 4200 nM
O=C(O)c1ccc2cccnc2n1  Ki (Thioredoxin glutathione reductase (Schistosoma mansoni, UniProt Q962Y6); enzyme activity, inhibitor; NADPH-free enzyme, added: varied NADPH, 3 mM DTNB): 570000 nM
c1ccc(CCN2CCCCC2)cc1  Ki (alpha-1 adrenergic receptor, rat; binding; rat brain; 60 min, 25 °C, added: [3H]prazosin 3 nM): > 10000 nM
CC(C)[C@H](NC(=O)[C@H](CCCNC(=N)N)NC(=O)[C@@H](CCCNC(=N)N)NC(=O)[C@H](N)CCCNC(=N)N)C(=O)N[C@@H](CCCNC(=N)N)C(=O)NCc1ccc(C(=N)N)cc1  Ki (FURIN; enzyme activity, inhibitor, fluorescence): 0.051 nM
CC1Oc2cc3c(-c4c(O)cc(O)c5c(O)c6c(cc45)OC(C)C(C)C6=O)c(O)cc(O)c3c(O)c2C(=O)C1C (stereo not shown)  Ki (Replicase polyprotein 1ab, main protease (Feline coronavirus, UniProt Q98VG9); enzyme activity, inhibitor, fluorescence): 3600 nM
CN1CCN(CCc2ccc(Cl)c(Cl)c2)CC1  Ki (Sigma intracellular receptor 2 (TMEM97, Homo sapiens, UniProt Q5BJF2); ligand displacement, radioligand): 210 nM
CC1(C)C[C@H]2[C@@H]3CC=C4C[C@@H](OC5CCCCO5)CC[C@]4(C)[C@H]3CC[C@]2(C)[C@H]1O (stereo partly shown)  Ki (Oxysterol-binding protein 1 (OSBP, Homo sapiens, UniProt P22059); ligand displacement, radioligand): 22 nM
CCCCN1C(=O)C(C=CC=CC=C2C(=O)N(c3ccc(S(=O)(=O)O)cc3)N=C2C)C(=O)N(CCCC)C1=O  Ki (SLC4A1 (Homo sapiens, UniProt P02730); 36Cl exchange flux, inhibitor, Dixon plot; human erythrocytes; 0 °C, external iodide at equilibrium): 26.4 nM and 26 nM
C[C@H]1CNCCc2ccc(Cl)cc21  Cmax (male Sprague-Dawley rat, plasma; subcutaneous, 0.5 mg/kg, single dose): 15.6 ng/mL
N=C(N)NCc1ccc(C(=O)NCCCCC(NC(=O)NC(CCC(=O)O)C(=O)O)C(=O)O)cc1I (stereo not shown)  Ki (Glutamate carboxypeptidase 2 (FOLH1, Homo sapiens, UniProt Q04609); inhibitor, Amplex Red fluorescence; LNCaP cell extract; added: NAAG): 0.45 nM
O=C(/C=C/c1ccoc1)N[C@H]1CC[C@@]2(O)[C@H]3Cc4ccc(O)c5c4[C@@]2(CCN3CC2CC2)[C@H]1O5  Ki (Oprk1; ligand displacement, radioligand): 1.96 nM
CC(C)CN(C[C@@H](O)[C@H](Cc1ccccc1)NC(=O)O[C@H]1CO[C@H]2OCC[C@H]21)S(=O)(=O)c1ccc(-c2nc(CO)co2)cc1  Ki (Gag-Pol polyprotein, protease (gag-pol, Human immunodeficiency virus type 1 group M subtype B, UniProt P04585); enzyme activity, inhibitor): 0.0497 nM
[O]=[V]([OH])([OH])[OH]  Ki (Ubiquitin-associated and SH3 domain-containing protein B, phosphatase domain (UBASH3B, Homo sapiens, UniProt Q8TF42); phosphatase activity, competitive inhibitor; added: pNPP): 4610 ± 620 nM
O=S(=O)(NCB(O)O)c1ccc(-c2nn[nH]n2)cc1C(F)(F)F  Ki (ADC-7 beta-lactamase, Acinetobacter baumannii; inhibitor; 5 min preincubation, pH 7.4, added: nitrocefin 60 µM): 0.45 nM
O=S(=O)(O)c1cc(N=C=S)ccc1C=Cc1ccc(N=C=S)cc1S(=O)(=O)O  Ki (Dihydrofolate reductase (folA, Escherichia coli, UniProt P0ABQ4); inhibitor; from IC50, non-competitive): 51000 nM
NC(CO)(CCc1ccc(Sc2cccc(O)c2)cc1Cl)COP(=O)(O)O (single isomer, unassigned; (+))  Ki (Sphingosine 1-phosphate receptor 3 (S1PR3, Homo sapiens, UniProt Q99500); reporter gene, antagonist, NFAT β-lactamase reporter; CHO; added: CYM-5541): 0.25 nM
O=C(O)c1[nH]c(=O)[nH]c(=O)c1F  Ki (uracil transporter; uracil uptake, inhibitor; Trypanosoma brucei brucei, bloodstream form; 30 s, added: 0.15 µM [3H]-uracil): 290000 ± 40000 nM
CCCCCCCCCCCCC/C=C/[C@@H](O)[C@H](CO)N(C)C  Ki (Sphingosine kinase 2 (SPHK2, Homo sapiens, UniProt Q9NRA0); enzyme activity, inhibitor, TLC): 20000 nM
O=C(O)[C@H]1/C(=C/CO)O[C@@H]2CC(=O)N21  Ki (ampC (Burkholderia multivorans, UniProt A0A0H3KN52); enzyme activity, inhibitor): 5000 ± 1000 nM
CSC[C@H]1O[C@@H](n2cnc3c2N=CNC[C@H]3O)C[C@@H]1O  Ki (Fructose-1,6-bisphosphate aldolase/phosphatase; inhibitor; pH 7.0, 25 °C, 77 nM enzyme, added: MTA 400 µM): > 10000 nM
CC(C)[C@H](NC(=O)[C@H](CCCNC(=N)N)NC(=O)[C@H](CCCNC(=N)N)NC(=O)Cc1ccccc1)C(=O)N[C@@H](CCCNC(=N)N)C(=O)NCc1ccc(C(=N)N)cc1  Ki (FURIN; enzyme activity, inhibitor, fluorescence): 0.0563 nM and ~0.05 nM
Cc1cc(O)cc(C)c1C[C@H](N)C(=O)N[C@@H]1CCNc2ccc(Cc3cccc4ccccc34)cc21  Ki (Delta-type opioid receptor (Oprd1, Rattus norvegicus, UniProt P33533); ligand displacement, radioligand; cell membranes): 6 nM
O=C(NC(=S)NCCCc1c[nH]cn1)c1ccccc1  Ki (Histamine H1 receptor (HRH1, Homo sapiens, UniProt P35367); ligand displacement, radioligand; cell membranes): > 100000 nM
polymyxin B nonapeptide  Ki (lipopolysaccharide (Klebsiella pneumoniae ATCC 13883); binding, displacement): 26000 ± 10000 nM
CN[C@@](C)(C[18F])C(=O)O  tracer uptake (MDA-MB-468 tumour model; host not given, lung; 30 min, tumour-bearing): 2 %ID/g
CC(C)[C@H](NC(=O)[C@H](CCCNC(=N)N)NC(=O)[C@H](C)NC(=O)[C@H](CCCNC(=N)N)NC(=O)Cc1ccccc1)C(=O)N[C@@H](CCCNC(=N)N)C(=O)NCc1ccc(C(=N)N)cc1  Ki (FURIN; enzyme activity, inhibitor, fluorescence): 0.0459 nM and ~0.05 nM
O=C(/C=C/c1ccoc1)N[C@@H]1CC[C@@]2(O)[C@H]3Cc4cccc5c4[C@@]2(CCN3CC2CC2)[C@H]1O5  Ki (Oprk1; ligand displacement, radioligand): 0.98 nM
O[C@@H]1CNC=Nc2c1ncn2[C@H]1C[C@H](O)[C@@H](CSc2ccccc2)O1  Ki (Fructose-1,6-bisphosphate aldolase/phosphatase; inhibitor; pH 7.0, 25 °C, 77 nM enzyme, added: MTA 400 µM): 850 ± 200 nM
NC(=O)[C@H](CO)NC(=O)CCCCCn1cc(CN(Cc2cn(CCCCCC(=O)N[C@@H](CO)C(N)=O)nn2)Cc2cn(CCCCCC(=O)N[C@@H](CO)C(N)=O)nn2)nn1  Ki (Melanocortin receptor 4 (MC4R, Homo sapiens, UniProt P32245); competitive binding; HEK293 expressing MC4R and CCK2R): > 10000 nM
O=C(O)C[C@H]1CCN[C@@H]1C(=O)O  Ki (Glutamate receptor ionotropic, kainate 3 (Rattus norvegicus, UniProt P42264); binding; Sf9 cells expressing homomeric receptor; added: [3H]-kainate): 510 nM

Some of these lines once more:
O=C(O)[C@H]1/C(=C/CO)O[C@@H]2CC(=O)N21  Ki (ampC (Burkholderia multivorans, UniProt A0A0H3KN52); enzyme activity, inhibitor): 5000 ± 1000 nM
CN[C@H]1CC[C@@H](c2ccc(Cl)c(Cl)c2)c2ccccc21  Ki (Cytochrome P450 2B6 (CYP2B6, Homo sapiens, UniProt P20813, K262R); 5 min, pH 7.4): 1760 nM and 1700 nM
N=C(N)NCc1ccc(C(=O)NCCCCC(NC(=O)NC(CCC(=O)O)C(=O)O)C(=O)O)cc1I (stereo not shown)  Ki (Glutamate carboxypeptidase 2 (FOLH1, Homo sapiens, UniProt Q04609); inhibitor, Amplex Red fluorescence; LNCaP cell extract; added: NAAG): 0.45 nM
NC(CO)(CCc1ccc(Sc2cccc(O)c2)cc1Cl)COP(=O)(O)O (single isomer, unassigned; (+))  Ki (Sphingosine 1-phosphate receptor 3 (S1PR3, Homo sapiens, UniProt Q99500); reporter gene, antagonist, NFAT β-lactamase reporter; CHO; added: CYM-5541): 0.25 nM
CC1(C)C[C@H]2[C@@H]3CC=C4C[C@@H](OC5CCCCO5)CC[C@]4(C)[C@H]3CC[C@]2(C)[C@H]1O (stereo partly shown)  Ki (Oxysterol-binding protein 1 (OSBP, Homo sapiens, UniProt P22059); ligand displacement, radioligand): 22 nM
